Experimental data of several laboratories.
Each line is one published result; not all experiments were run side by side. ± marks the error that the study gave.
Organism: Escherichia coli

SMILES	technique	strain	sample	time	temperature	setting	MIC
CC(C)C[C@H](NC(=O)[C@H](C)NC(=O)[C@@H](N)CO)C(=O)N[C@@H](Cc1c[nH]cn1)C(=O)N[C@@H](CC(C)C)C(=O)N[C@H](C(=O)N[C@@H](CC(C)C)C(=O)N[C@@H](CCCNC(=N)N)C(=O)N[C@@H](CC(C)C)C(=O)N[C@@H](CCCNC(=N)N)C(=O)NCC(=O)NCC(=O)O)C(C)C		DH5α			37 °C	≥90% viability decrease	> 100 µM
CC[C@H](C)[C@H](NC(=O)[C@H](C)NC(=O)[C@H](CCC(=O)O)NC(=O)[C@H](Cc1c[nH]cn1)NC(=O)[C@H](CC(C)C)NC(=O)CNC(=O)[C@H](CCC(N)=O)NC(=O)[C@H](Cc1ccccc1)NC(=O)[C@@H](NC(=O)[C@H](CCCCN)NC(=O)[C@H](CCCCN)NC(=O)[C@H](CC(C)C)NC(=O)[C@@H](NC(=O)[C@H](CC(N)=O)NC(=O)[C@H](CC(C)C)NC(=O)CN)[C@@H](C)O)C(C)C)C(=O)N[C@@H](CCCCN)C(=O)N[C@@H](CC(C)C)C(=O)N[C@H](C(=O)N[C@@H](CC(N)=O)C(=O)N[C@@H](CC(N)=O)C(=O)N[C@@H](Cc1c[nH]cn1)C(=O)N[C@H](C(=O)N[C@@H](CCC(N)=O)C(=O)O)C(C)C)[C@@H](C)CC	broth microdilution	K12			37 °C		100 µM
CC[C@H](C)[C@H](N)C(=O)N[C@H](C(=O)N[C@@H](CCCCN)C(=O)N[C@@H](CCCNC(=N)N)C(=O)N[C@H](C(=O)N[C@@H](CC(C)C)C(=O)N[C@H](C(=O)N[C@@H](CCC(N)=O)C(=O)N[C@@H](CC(C)C)C(=O)N[C@@H](CCCCN)C(=O)N[C@@H](CCCCN)C(=O)N[C@@H](CC(C)C)C(=O)N[C@@H](CC(C)C)C(N)=O)[C@@H](C)CC)[C@@H](C)CC)[C@@H](C)CC		ATCC 25922		1 h	37 °C	non-dividing cells in PBS	12.5 µg/mL
CC[C@H](C)[C@H](NC(=O)[C@H](Cc1c[nH]cn1)NC(=O)[C@H](CCCCN)NC(=O)[C@@H](NC(=O)[C@@H](NC(=O)[C@H](CC(=O)O)NC(=O)[C@H](Cc1ccccc1)NC(=O)[C@H](Cc1c[nH]c2ccccc12)NC(=O)CN)C(C)C)C(C)C)C(=O)N[C@@H](C)C(=O)N[C@@H](CCCCN)C(=O)N[C@@H](CCCNC(=N)N)C(=O)N[C@@H](Cc1ccccc1)C(N)=O	broth microdilution	K12			37 °C		12.5 µM
CC[C@H](C)[C@H](NC(=O)[C@H](CCCCN)NC(=O)[C@H](CCC(=O)O)NC(=O)[C@H](CCCCN)NC(=O)[C@H](CO)NC(=O)[C@H](CCCCN)NC(=O)[C@H](CCCNC(=N)N)NC(=O)[C@H](Cc1ccccc1)NC(=O)[C@H](Cc1ccccc1)NC(=O)[C@H](CC(=O)O)NC(=O)CNC(=O)[C@H](CC(C)C)NC(=O)[C@@H](N)CC(C)C)C(=O)NCC(=O)N[C@@H](CCCCN)C(=O)N[C@@H](CCC(=O)O)C(=O)N[C@@H](Cc1ccccc1)C(=O)N[C@@H](CCCCN)C(=O)N[C@@H](CCCNC(=N)N)C(=O)N[C@H](C(=O)N[C@H](C(=O)N[C@@H](CCC(N)=O)C(=O)N[C@@H](CCCNC(=N)N)C(=O)N[C@H](C(=O)N[C@@H](CCCCN)C(=O)N[C@@H](CC(=O)O)C(=O)N[C@@H](Cc1ccccc1)C(=O)N[C@@H](CC(C)C)C(=O)N[C@@H](CCCNC(=N)N)C(=O)N[C@@H](CC(N)=O)C(=O)N[C@@H](CC(C)C)C(=O)N[C@H](C(=O)N1CCC[C@H]1C(=O)N[C@@H](CCCNC(=N)N)C(=O)N[C@H](C(=O)N[C@@H](CCC(=O)O)C(=O)N[C@@H](CO)C(=O)O)[C@@H](C)O)C(C)C)[C@@H](C)CC)C(C)C)[C@@H](C)CC	broth microdilution	DC2 outer membrane mutant					3 µM
CSCC[C@H](NC(=O)[C@H](CC(N)=O)NC(=O)[C@@H]1CCCN1C(=O)[C@@H]1CCCN1C(=O)[C@H](CCCNC(=N)N)NC(=O)[C@@H]1CCCN1C(=O)[C@H](CCCNC(=N)N)NC(=O)[C@@H]1CCCN1C(=O)[C@H](CCCNC(=N)N)NC(=O)[C@H](Cc1ccc(O)cc1)NC(=O)[C@H](CC(=O)O)NC(=O)[C@@H]1CCCN1C(=O)[C@H](CCCCN)NC(=O)[C@H](CC(=O)O)NC(=O)[C@@H](N)C(C)C)C(=O)O	alamarBlue	SQ110		overnight	37 °C		> 25 µM
CC(C)C[C@H](NC(=O)[C@H](CC(C)C)NC(=O)[C@H](CCCCN)NC(=O)[C@H](CC(C)C)NC(=O)[C@H](CC(C)C)NC(=O)[C@H](CCCCN)NC(=O)[C@H](CCCCN)NC(=O)[C@H](CC(C)C)NC(=O)[C@H](CC(C)C)NC(=O)[C@H](CCCCN)NC(=O)[C@H](CC(C)C)NC(=O)[C@H](CC(C)C)NC(=O)[C@@H](N)CCCCN)C(=O)N[C@@H](CCCCN)C(N)=O		ATCC 25922	CAMHB	18 h	37 °C		19 µM
CC(C)C[C@H](NC(=O)[C@H](Cc1c[nH]c2ccccc12)NC(=O)[C@H](CCCNC(=N)N)NC(=O)[C@H](CC(C)C)NC(=O)[C@H](CCCNC(=N)N)NC(=O)[C@H](Cc1c[nH]c2ccccc12)NC(=O)[C@H](Cc1c[nH]c2ccccc12)NC(=O)[C@H](CC(C)C)NC(=O)[C@H](CCCCN)NC(=O)[C@H](Cc1c[nH]c2ccccc12)NC(=O)[C@@H](NC(=O)[C@@H](N)CC(C)C)C(C)C)C(=O)N[C@@H](CCCCN)C(N)=O		ATCC 25922		1 h	37 °C	dividing cells in LB	≥ 100 µg/mL
CC(C)C[C@H](NC(=O)[C@H](CCCNC(=N)N)NC(=O)[C@@H]1CCCN1C(=O)[C@H](CCCNC(=N)N)NC(=O)[C@@H]1CCCN1C(=O)[C@@H]1CCCN1C(=O)[C@H](CCCNC(=N)N)NC(=O)[C@@H]1CCCN1C(=O)[C@H](CCC(N)=O)NC(=O)[C@@H]1CCCN1C(=O)[C@H](CCCCN)NC(=O)[C@H](Cc1ccc(O)cc1)NC(=O)[C@@H](NC(=O)[C@@H]1CCCN1C(=O)[C@H](CCCCN)NC(=O)[C@H](CC(N)=O)NC(=O)[C@H](CC(N)=O)NC(=O)CN)C(C)C)C(=O)O		JW0368 ΔsbmA		18 h	37 °C	12.5% Mueller-Hinton broth	0.192 ± 0.044 µM
CC[C@H](C)[C@H](NC(=O)[C@H](CCCCN)NC(=O)[C@H](CC(C)C)NC(=O)[C@H](Cc1ccccc1)NC(=O)[C@H](CCCNC(=N)N)NC(=O)[C@H](CC(C)C)NC(=O)[C@H](Cc1ccccc1)NC(=O)[C@H](CCCNC(=N)N)NC(=O)[C@H](CO)NC(=O)[C@H](CC(C)C)NC(=O)[C@@H](N)CO)C(=O)N[C@H](C(=O)N[C@@H](Cc1ccc(O)cc1)C(=O)N[C@@H](CCCNC(=N)N)C(=O)N[C@@H](CCCNC(=N)N)C(=O)N[C@@H](C)C(=O)N[C@@H](Cc1ccccc1)C(N)=O)C(C)C	broth microdilution	K12			37 °C		25 µM
CC(C)C[C@H](NC(=O)[C@H](Cc1ccccc1)NC(=O)[C@H](CCCCN)NC(=O)[C@@H](N)CCCCN)C(=O)NCC(=O)N[C@@H](CCCCN)C(=O)N[C@@H](Cc1c[nH]c2ccccc12)C(=O)N[C@@H](CCCCN)C(=O)N[C@@H](CC(C)C)C(=O)N[C@@H](CCCNC(=N)N)C(=O)N[C@@H](Cc1ccccc1)C(=O)NCC(=O)N[C@@H](Cc1c[nH]c2ccccc12)C(N)=O		ATCC 25922		1 h	37 °C	non-dividing cells in PBS	12.5 µg/mL
CC(C)C[C@H](NC(=O)[C@H](CCCNC(=N)N)NC(=O)[C@@H]1CCCN1C(=O)[C@H](Cc1c[nH]cn1)NC(=O)[C@@H]1CCCN1C(=O)[C@@H]1CCCN1C(=O)[C@H](CCCNC(=N)N)NC(=O)[C@@H]1CCCN1C(=O)[C@H](CCC(N)=O)NC(=O)[C@@H]1CCCN1C(=O)[C@H](CCCNC(=N)N)NC(=O)[C@H](Cc1ccc(O)cc1)NC(=O)[C@@H](NC(=O)[C@@H]1CCCN1C(=O)[C@H](CCCCN)NC(=O)[C@H](CC(N)=O)NC(=O)[C@H](CC(N)=O)NC(=O)CN)C(C)C)C(=O)O	broth microdilution	BW25113	5% M9 medium				0.192 ± 0.044 µM
CC[C@H](C)[C@H](NC(=O)[C@H](CCCCN)NC(=O)[C@H](CCCNC(=N)N)NC(=O)[C@@H](NC(=O)[C@H](CC(C)C)NC(=O)[C@H](CCCCN)NC(=O)[C@H](CC(C)C)NC(=O)[C@@H](NC(=O)[C@H](CCCCN)NC(=O)CNC(=O)[C@H](Cc1ccccc1)NC(=O)[C@@H](N)Cc1ccccc1)C(C)C)[C@@H](C)CC)C(=O)N[C@@H](Cc1ccccc1)C(N)=O	broth microdilution	K12			37 °C		> 100 µM
CC[C@H](C)[C@H](NC(=O)[C@H](CCCNC(=N)N)NC(=O)[C@H](CCCCN)NC(=O)[C@H](CC(C)C)NC(=O)[C@H](Cc1ccccc1)NC(=O)[C@H](CCCNC(=N)N)NC(=O)[C@H](C)NC(=O)[C@@H](N)C(C)C)C(=O)N[C@H](C(=O)N[C@@H](CCCCN)C(=O)N[C@@H](C)C(=O)N[C@@H](CC(C)C)C(=O)N[C@@H](Cc1ccccc1)C(N)=O)[C@@H](C)CC		ATCC 25922		1 h	37 °C	dividing cells in LB	6.25 µg/mL

For quick reference, copied from above:
SMILES	technique	strain	sample	time	temperature	setting	MIC
CC[C@H](C)[C@H](NC(=O)[C@H](CCCCN)NC(=O)[C@H](CCCNC(=N)N)NC(=O)[C@@H](NC(=O)[C@H](CC(C)C)NC(=O)[C@H](CCCCN)NC(=O)[C@H](CC(C)C)NC(=O)[C@@H](NC(=O)[C@H](CCCCN)NC(=O)CNC(=O)[C@H](Cc1ccccc1)NC(=O)[C@@H](N)Cc1ccccc1)C(C)C)[C@@H](C)CC)C(=O)N[C@@H](Cc1ccccc1)C(N)=O	broth microdilution	K12			37 °C		> 100 µM
